Assay results gathered from unrelated publications.
Each numbered part is a random draw from the data of one study; scales do not carry over between parts. Changes are numbered by the printed parent chain.

Study 1 — technique: protein-binding microarray; molecule type: double-stranded DNA, one strand shown; sample: in vitro; tested at: 250 nM; notes: 60-bp whole probe; added: salmon DNA 0.4 mg/ml; baseline: random background probes; reading: higher = stronger binding; all sequences stand within: GCCTAGCAC … GTCTTGATTCGCTTGACGCTGCTG
Target: Interferon regulatory factor 5, full length, phosphomimetic (IRF5, Homo sapiens, UniProt Q13568-2, residues 1-514, K96S/S451D/S453D/S456D/S462D)
Sequence	log fluorescence [z-score]
TTAGAATTGGGGTTTCGATTAGTGCTA	5.86
GAAGATATCGGGTTTCGAGACGTGCTA	3.27
GACGGTTTCGGGATTCGGGACGTGCTA	5.78
GATGGACTGGACACTGGGGACGTGCTA	-0.582
TCATGCCTATTTTTCCCACTGTGCTAG	0.371
GACGATTTCGGGTTTCGAGTCGTGCTA	5.59
GACGGTTGCCTACTGCTGACGTGCTAG	-0.342
GACGAACTGGGGTATCGAGTCGTGCTA	-0.0122
GGTGGGGTGCAGCAGGGCCAGTGCTAG	-0.924
TTAGAACTGAGGCTGGATTAGTGCTAG	-0.398
TTAGGATTCGACTTTCGGTTAGTGCTA	9.61
TCATGTGTCAACTTTCTCACTGTGCTA	0.793
TTAGGACCGGGACTGGGTTAGTGCTAG	-0.271
GACAGACTGGGTCTCGGGACGTGCTAG	-0.522
TTAAGTATCGACTATCGGTTAGTGCTA	9.18
TTAGGTTTCGGTATCGGTCAGTGCTAG	11.3
TCATATCTGTGTTATTAAACTGTGCTA	1.75
GACGGTAGCCTTATCCTGACGTGCTAG	-0.231
TCAATTATTTATTGTAGCACTGTGCTA	0.822

Study 2 — technique: RNA Bind-n-Seq; molecule type: RNA; sample: in vitro; tested at: 365 nM; baseline: no-protein control; reading: higher = stronger binding
Target: RNA binding protein fox-1 homolog 2, RRM domain, GST-SBP tag (RBFOX2, Homo sapiens, UniProt O43251-10, residues 100-194)
Notes: natural RNA segment, single round, ends assumed
Residues (chain): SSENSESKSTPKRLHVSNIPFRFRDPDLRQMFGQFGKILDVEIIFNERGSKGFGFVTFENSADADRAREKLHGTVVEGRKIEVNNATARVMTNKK
Sequence	RBNS enrichment (R)
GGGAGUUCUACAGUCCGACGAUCGAUCCGUUGUAAAAAUAUAUAUGUGAAUAUAUAUACAUAACCAGUGCAAUCAGCUUUCAUUUCCUUUUUCUUGAAAACAUACGACUAUAUAGAAAGAAAGACAAUAAGAAUGGAAUUCUCGGGUGCCAA	0.319
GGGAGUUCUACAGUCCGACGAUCAUGCUGGGACUGCUCCUACUCUCUGUCCCACCCCUCACCCAGCUGUGGUCCGGCUUUGGGAGAGUGGUGAAUUGCGCUGCCCGAACUCGGAGCGGAGCAGGGUAGGGACCUGGAAUUCUCGGGUGCCAA	0.362
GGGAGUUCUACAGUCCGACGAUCCAUGCUUGGGGACUGGUCCCACUGGAUCUCUAUCCUAACGUCCAUGGCCGUCAGCACCCCUCCUUUCCCCAAGGUGAAAUGGAGGGUGCUGUGGGGGCCUGCCCACUCCAUGGAAUUCUCGGGUGCCAA	0.508
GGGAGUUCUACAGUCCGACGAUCGAGACUCCAAUGUUUACUUUCUCCAGUCCUAGCUCUGCCAUAUAAACACUGUCUCAUGUUGUGCUUCUUAAACGACAAAGAACAUAGUGACUUUUGGGGAUAGAUCUGUCUGGAAUUCUCGGGUGCCAA	0.482
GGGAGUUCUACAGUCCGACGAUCAACACCUUAACAGUCACCACUGUGCUCAACCAGACAGAUAGUGAAACAGCUUUCUGGGUAAUUCACCAAUUUCCUUUAAAACAUAAGCUACCUGAAUGGAGAAUACAUCUUGGAAUUCUCGGGUGCCAA	0.198
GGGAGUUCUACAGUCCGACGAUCUAGAUGGUAUAACAUUUGAAAAUAUUGUCUUAUGUGAUUUUUUCCCCUGAAAAUAUUUGCUUGUAAAUGAAAACUUAGCUAGGGCUUAAAUAAACAUGUUGCUAUGAAAUUGGAAUUCUCGGGUGCCAA	1.79
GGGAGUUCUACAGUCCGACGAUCAGUUACAUAAUUUUAUGGACUAUAGAGAUGGCGUCCCACUGAUGUGAGAAACAUCACAACAGCGAGGAAAGCACUGUGAGUAUAUCAGAAUGAAAACAUCCCUGCUUCCCUGGAAUUCUCGGGUGCCAA	0.269
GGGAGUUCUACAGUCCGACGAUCGGAGAGAUGUGUCACUCAAUCCUGUGGCUUUGGUGAGAGAGUGUGCAGAGAGCAAUGAUAGCAAAUAACGUACGAAUGUUUUACAUCAAAGGACAUCCACAUCAGUUGGAUGGAAUUCUCGGGUGCCAA	0.687
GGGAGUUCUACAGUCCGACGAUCCUUUUGAUCUGCCAAGGAUUUCCUCUCAGAGCUGUUGCACAGACAGAGAUUGUACUUGGUAAGAUACCAAACAAGACAGAUAUGGAUCUAAAUUUCUAAUGUGUUCUAUGUGGAAUUCUCGGGUGCCAA	0.388
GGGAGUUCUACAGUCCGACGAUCUGGGCUACAGAGGAGCAAGCAAGCACUUCAGACUGACCAAAGGUUGUGGUGGCCCACAUGGCUCUGCCCAGUGUCCUGUGCUUUGCCACAGUCCUCUGGGGUCAGUGUCUUGGAAUUCUCGGGUGCCAA	0.176
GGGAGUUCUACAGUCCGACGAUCAGACACUGAAACAGGAGAGAGGGACUUCCGUCCACUGGGCAGGGUACAGAUGUGUCUCAGUUGUGAAGGUCUAUUCCUGGCUGCACAGUCCCCAUCCGCUCAGUCAUCUUUGGAAUUCUCGGGUGCCAA	0.234
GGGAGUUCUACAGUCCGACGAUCAUUUCUCUUCAGUUGGUGUGUUUCCGGGAUGUCUUAUUUUUAGAUGGUUACACUGUUAGAACACUAUUUUUCAGAAUCUGAAUGUAAUUUGUGUAAUAAAGUGUUUUCAGUGGAAUUCUCGGGUGCCAA	0.625

Study 3 — target: CCNE1, cyclin fold, Cln2 fusion (human); technique: yeast growth competition, sequencing; sample: yeast; notes: strong parent motif; baseline: not given; reading: higher = stronger binding
Starting sequence: GMNC docking peptide (human); KNAKRNLSSEFAN
Variant	normalised enrichment score
N6G	0.174
L7P	0.152
K4M	0.332
F11Q	0.439
E10T	0.451
A3V	2.28
L7C	-0.128
E10A	0.548
S8C	1.27
F11C	0.2
S8V	1.53

Single results of other studies
Molecule	target	test	system	conditions	scale	endpoint	result
PhoQ, residues 284 288 289 292 302 303 TAVSDG	PhoP, residues 12 14 15 18 19 LFHKL (Escherichia coli, UniProt P23836)	Sort-seq, refers to: YFP reporter	E. coli	PhoQ-PhoP variant library, added: 10 µM Mg2+	baseline: high Mg2+ state, higher = stronger signaling	fold induction	2.78

Excerpt of the above (single results of other studies):
Molecule	target	test	system	conditions	scale	endpoint	result
PhoQ, residues 284 288 289 292 302 303 TAVSDG	PhoP, residues 12 14 15 18 19 LFHKL (Escherichia coli, UniProt P23836)	Sort-seq, refers to: YFP reporter	E. coli	PhoQ-PhoP variant library, added: 10 µM Mg2+	baseline: high Mg2+ state, higher = stronger signaling	fold induction	2.78
